Measured values gathered from unrelated publications.
A part holds a random share of what one study measured. Substitutions count along the parent as printed.

Series 1 — target: CCNE2, cyclin fold, Cln2 fusion (human); technique: yeast growth competition, sequencing; medium: yeast; notes: strong parent motif; reference: not given; direction: higher = stronger binding; measurement: normalised enrichment score
Parent: E2F1 docking peptide (human); PPVKRRLDLETDH
PPVKFRLDLETDH [R5F]: 0.108
PFVKRRLDLETDH [P2F]: 1.59
PPVHRRLDLETDH [K4H]: -0.0584
PPVKRLLDLETDH [R6L]: 0.358
PPVKMRLDLETDH [R5M]: 0.388
PPVKRRLDLEKDH [T11K]: 1.28
PLVKRRLDLETDH [P2L]: -0.152
NPVKRRLDLETDH [P1N]: 1.2
PPVKRRLDLETWH [D12W]: 1.8
PRVKRRLDLETDH [P2R]: 0.976
PPVKRRHDLETDH [L7H]: -0.0403
PPVKRRLDLETDT [H13T]: 1.82
PPVKRALDLETDH [R6A]: -0.0113
PPVKRELDLETDH [R6E]: 0.823
PPVKRQLDLETDH [R6Q]: 0.642
PPVKRRLDLNTDH [E10N]: 2.27
PPWKRRLDLETDH [V3W]: 0.684
PPVKRRLDLETIH [D12I]: 1.68
FPVKRRLDLETDH [P1F]: 2.05
PPVKRRLELETDH [D8E]: 0.627
PPVKRRWDLETDH [L7W]: 0.906
PPVKRRADLETDH [L7A]: -0.0851
QPVKRRLDLETDH [P1Q]: 0.927
PPVTRRLDLETDH [K4T]: -0.242
PPVKRRFDLETDH [L7F]: -0.604

Series 2 — technique: RNA Bind-n-Seq; form: RNA; medium: in vitro; concentration: 200 nM; notes: whole 134-nt RNA, ends assumed; added: 150 mM LiCl; reference: input library; direction: higher = stronger binding; measurement: log2 enrichment; library: 7-deaza-guanosine replaces G
Target: Fragile X messenger ribonucleoprotein 1, C-terminal low-complexity region (Fmr1, Mus musculus, UniProt P35922)
Shared flanks, not repeated: GGGAGUUCUACAGUCCGACGAUC … UGGAAUUCUCGGGUGUCAAGG
CACAGACAACACGCACCCACACAGACACAGAGGGAAGGGGUUGGGAUGGGGACAGGGUGCACAGCAGGGCGGGGUAGAACCCCAGCCCCU: -0.324
GGUGCGGCUCUAUGAGUGGACAACAGAGAAGGAGCUGCGCACUGAGUGCAACCACUACAACAACAUCAUGGCCCUCUACCUGAAGACCAA: -0.448
UGGGAGGUGGAUUUUGUUUAAUUUUUUAGCUCAUUUCCAGGGGUGGGAAUUUUUUUUUAAUAUGUGUCAUGAAUAAAGUUGUUUUUGAAA: 0.0765
UCAAGUCCUGUGCUACACAUCGUAUGUACCGAAUCGGGGAAGGGGAAGGGGAAGGAAAGUAUUAUGUUACGCCGUUCGGAUCUGCACUUC: -0.998
GUCCUGUGCUACACAUCGUAUGUACCGAAUCGGGGAAAAAAAGGGGAGGGGAAAGGGGAAAGUAUUAUGUUACGCCGUUCGGAUCUGCAC: 1.08
UCUAUCCUGUCCCUCCACCCCACCCUCCACCUCAAUCCCCUCCCAUCUUCCCCAGACCUACCUCACCUACUAGGACCUGAGGCAGCUCCU: 1.58
UCCUGUGCUACACAUCGUAUGUACCGAAUCGGGAAAAAAGGGAAAAAAGGAAAAAAGGGGAAAGUAUUAUGUUACGCCGUUCGGAUCUGC: -0.846
UAACUUUAGAGGAGGAUCUGAUGGAUAUGGCAGUGGACGUGGAUUUGGGGAUGGCUAUACUGGGUAUGGAGGAGGACCUGGAGGUGGCAA: -0.367
GUCCUGUGCUACACAUCGUAUGUACCGAAUCGGGUUUGGGUUUUUGGGAAAAAAAGGGAAAGUAUUAUGUUACGCCGUUCGGAUCUGCAC: -1.04
UCAAGUCCUGUGCUACACAUCGUAUGUACCGAAUCGGGUUUGGGAAAGGGAGGGAAAGUAUUAUGUUACGCCGUUCGGAUCUGCACUUCC: -1.31
CCUCAAGUCCUGUGCUACACAUCGUAUGUACCGAAUCGGUGGUUUUUGGUGGAAAGUAUUAUGUUACGCCGUUCGGAUCUGCACUUCCAG: 0.217

Series 3 — technique: protein-binding microarray; form: double-stranded DNA, one strand shown; medium: in vitro; concentration: 250 nM; notes: 60-bp whole probe; added: salmon DNA 0.4 mg/ml; reference: random background probes; direction: higher = stronger binding; measurement: log fluorescence; shared flanks, not repeated: GCCTAGCAC … GTCTTGATTCGCTTGACGCTGCTG
Target: Interferon regulatory factor 7, full length, phosphomimetic (IRF7, Homo sapiens, UniProt Q92985, residues 1-503, S101K/S471D/S472D/S475D/S476D/S477D/S483D/S484D/S487D)
Target sequence (chain): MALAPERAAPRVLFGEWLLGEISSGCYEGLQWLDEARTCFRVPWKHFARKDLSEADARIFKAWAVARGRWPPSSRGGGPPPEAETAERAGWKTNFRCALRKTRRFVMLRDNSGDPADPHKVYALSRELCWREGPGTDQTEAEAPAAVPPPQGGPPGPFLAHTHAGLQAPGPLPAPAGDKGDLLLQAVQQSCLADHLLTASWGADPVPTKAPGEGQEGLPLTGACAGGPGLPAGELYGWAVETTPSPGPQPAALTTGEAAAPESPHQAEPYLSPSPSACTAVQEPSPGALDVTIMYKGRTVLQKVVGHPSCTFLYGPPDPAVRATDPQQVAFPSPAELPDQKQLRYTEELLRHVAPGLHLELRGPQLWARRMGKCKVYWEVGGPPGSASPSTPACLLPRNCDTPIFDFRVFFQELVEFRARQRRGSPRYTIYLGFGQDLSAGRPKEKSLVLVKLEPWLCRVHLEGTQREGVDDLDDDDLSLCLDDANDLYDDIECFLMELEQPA
TTAGGTATCGACACTAGGTTAGTGCTA: -0.22 z-score
CACAGTTTGTAAATCTTTTTGTGCTAG: 0.333 z-score
GACGATCGCAGTCTCGAGACGTGCTAG: -0.0831 z-score
TTAGGTCTCGGTCTTGGTTAGTGCTAG: 1.37 z-score
TTAGGACTGGGTTTCGGGTAGTGCTAG: 3.47 z-score
TCACTTTCCTTCTTGAAACTGTGCTAG: 2.76 z-score
TTAGGACGGCTTTTCCTTTAGTGCTAG: -0.0908 z-score
TTAGATATAGGGACTGGATTAGTGCTA: -0.0284 z-score
TTGTGTTTTCATTTTATGACGTGCTAG: 2.14 z-score
CCAGCAGGGTTAGGCTTGCTGTGCTAG: -0.986 z-score
GACGATATCAGACTAGAGACGTGCTAG: -0.0183 z-score
TTCTTTTTTTTCTTTAAAAGGTGCTAG: 1.38 z-score
TTAGATCTCGGTATCGGTTAGTGCTAG: 1.59 z-score
GACGGTATCGGGAGTGGGGACGTGCTA: -0.489 z-score
GACGGTCTCAGTTTCGAGACGTGCTAG: 4.25 z-score
TTAGGTTTCGGGTATCTGTTAGTGCTA: 7.07 z-score
CTCACCCAGTCCAGACACCCGTGCTAG: -0.213 z-score
CAGCCGCACAGCATGAGTTCGTGCTAG: -1.06 z-score
GACGGACTGAGTCTCGAGACGTGCTAG: -0.108 z-score
TTAGGTTTCGGGGCTGGGTTAGTGCTA: 1.77 z-score
GACGGTATCCTTCTACTGACGTGCTAG: 0.0466 z-score
TCAAATTTTAATAACACACTGTGCTAG: 0.149 z-score
TTAGGTTTCCTTCTGCTTTAGTGCTAG: 2.58 z-score
TTAGGACTGGGACTGGGATAGTGCTAG: -0.288 z-score
TGGCTTTGCCTTTTGCTTTAGTGCTAG: -0.586 z-score

Series 4 — technique: aptamer microarray, sandwich; form: DNA with 2'F-ANA; medium: in vitro; concentration: 200 nM; added: Cy3 exosite-II aptamer, 400 nM; direction: higher = stronger binding; measurement: mean fluorescence intensity; strand: GGTTGGTGTGGTTGG
Target: Prothrombin, mature alpha-thrombin (F2, Homo sapiens, UniProt P00734)
Notes: whole 15-mer aptamer, many near background
2'F-ANA at 1 3 6 8 9 10 11 12 15: 96.9 a.u.
2'F-ANA at 1 7 11 13 14: 54.2 a.u.
2'F-ANA at 1 3 5 6 7 9 10 11 14 15: 70.7 a.u.
2'F-ANA at 3 4 5 9 14 15: 63.3 a.u.
2'F-ANA at 1 2 4 6 7 8 10 14 15: 47.2 a.u.
2'F-ANA at 3 4 6 7 8 10 11 12 15: 266 a.u.
2'F-ANA at 2 3 5 6 7 8 13: 76.1 a.u.
2'F-ANA at 1 4 5 9 10 11 13 14 15: 71.5 a.u.
2'F-ANA at 3 4 5 9 10 11 14 15: 49.3 a.u.
2'F-ANA at 4 8 11 12 13 15: 366 a.u.
2'F-ANA at 4 5 8 9 10 11 12 13 14 15: 47 a.u.
2'F-ANA at 1 5 6 7: 57.1 a.u.
2'F-ANA at 1 4 7 8 12 13 14 15: 66.3 a.u.
2'F-ANA at 3 5 7 8 9 12: 331 a.u.
2'F-ANA at 1 2 3 5 6 8 9 11 12 15: 98.6 a.u.
2'F-ANA at 1 2 4 6 8 9 10 11 14 15: 51.9 a.u.
2'F-ANA at 1 2 5 7 10: 44.1 a.u.
2'F-ANA at 1 3 4 6 7 9 10 13 14 15: 75.4 a.u.
2'F-ANA at 1 4 9 12 13: 158 a.u.
2'F-ANA at 1 2 4 5 6 9 11 12 15: 85.9 a.u.
2'F-ANA at 1 2 13 14 15: 52.3 a.u.
2'F-ANA at 1 2 5 8 9 10 12 13 15: 70 a.u.
2'F-ANA at 3 4 5 7 9 13 15: 59 a.u.
2'F-ANA at 4 8 9 10 11 12 13 14 15: 53.7 a.u.
2'F-ANA at 2 3 10 12 13: 406 a.u.

Series 5 — technique: protein binding microarray; form: double-stranded DNA, one strand shown; medium: in vitro; concentration: not given; reference: not given; direction: higher = stronger binding; measurement: E-score
Target: Histone acetyltransferase KAT6A, both winged helices, GST fusion (KAT6A, Homo sapiens, UniProt Q92794, residues 1-181)
Notes: 8-mer, flanks averaged, mean of 2 arrays, mostly near background
Residues (chain): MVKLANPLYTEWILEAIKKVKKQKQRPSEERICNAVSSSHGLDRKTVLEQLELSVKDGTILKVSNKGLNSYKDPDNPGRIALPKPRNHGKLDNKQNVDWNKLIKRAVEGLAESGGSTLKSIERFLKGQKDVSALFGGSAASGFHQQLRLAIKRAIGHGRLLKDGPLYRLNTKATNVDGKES
AATACCGT: 0.171
CCGGACCG: 0.127
ACGTATCC: -0.0583
AGTTGCGC: 0.243
CTGCGTAA: 0.145
GCTGGGAA: -0.0485
AATAATAA: -0.0174
CGCCTCGA: 0.151
ACCTCTTC: -0.0809
ACGTACAA: -0.0284
GATCCAGC: -0.145
GAACATAC: -0.174
AGTACCGA: 0.0166
GTTTAGAA: 0.0222
AAGTCCAC: -0.192
AGATCTTA: -0.0558
ACGCTGGA: 0.00277
GACATGAC: 0.0308
ACCATATG: -0.137
GGTCCCGA: 0.0694
ACAGAGTA: -0.065
GGTTCTCA: -0.0519
CGGTCGTA: 0.19
GAGCCGTA: 0.252
CGCCAACA: 0.157

For quick reference, copied from above (series 3):
TTAGGACGGCTTTTCCTTTAGTGCTAG: -0.0908 z-score
TTAGATATAGGGACTGGATTAGTGCTA: -0.0284 z-score
TTGTGTTTTCATTTTATGACGTGCTAG: 2.14 z-score
CCAGCAGGGTTAGGCTTGCTGTGCTAG: -0.986 z-score
GACGATATCAGACTAGAGACGTGCTAG: -0.0183 z-score
TTCTTTTTTTTCTTTAAAAGGTGCTAG: 1.38 z-score
TTAGATCTCGGTATCGGTTAGTGCTAG: 1.59 z-score
GACGGTATCGGGAGTGGGGACGTGCTA: -0.489 z-score
GACGGTCTCAGTTTCGAGACGTGCTAG: 4.25 z-score
TTAGGTTTCGGGTATCTGTTAGTGCTA: 7.07 z-score
CTCACCCAGTCCAGACACCCGTGCTAG: -0.213 z-score
CAGCCGCACAGCATGAGTTCGTGCTAG: -1.06 z-score
GACGGACTGAGTCTCGAGACGTGCTAG: -0.108 z-score
TTAGGTTTCGGGGCTGGGTTAGTGCTA: 1.77 z-score
GACGGTATCCTTCTACTGACGTGCTAG: 0.0466 z-score
TCAAATTTTAATAACACACTGTGCTAG: 0.149 z-score
TTAGGTTTCCTTCTGCTTTAGTGCTAG: 2.58 z-score
